# Assay results gathered from unrelated publications.
# Each numbered part is a random draw from the data of one study; scales do not carry over between parts.

# Study 1
# Target: RNA binding protein fox-1 homolog 2, RRM domain, GST-SBP tag (RBFOX2, Homo sapiens, UniProt O43251-10, residues 100-194)
# Method: RNA Bind-n-Seq
# Molecule type: RNA
# Matrix: in vitro
# Concentration: 365 nM
# Notes: natural RNA segment, single round, ends assumed
# Relative to: no-protein control
# Reading: higher = stronger binding
# Constant ends, left off below: GGGAGUUCUACAGUCCGACGAUC … UGGAAUUCUCGGGUGCCAA
# Residues (chain): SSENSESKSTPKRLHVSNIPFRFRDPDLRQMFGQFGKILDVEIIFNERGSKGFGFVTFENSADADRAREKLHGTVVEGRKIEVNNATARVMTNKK
Sequence,RBNS enrichment (R)
GUUCUUAUCAGGGUGUGUCCACACUCUGCUCACAGGUGGAUCCACGGCUUUCCAGUGCGGAGAGUCGAGAUGCUCCCUGCAGCCCAGGCCCCGGGCACCUCCUGCAACCA,0.205
UCUUACUUUAGCAGUCACUUAACCUUCUCCAGCAAGGCAGUUGUGGGGUUCACUAGGAUUUAGUGCCUGAUCUUUUUUUUGGGAAGGGGCGGGAAUGAAUGUGUUGGGGC,1.35
ACUGACGCUCAGUAACCAUGCAAAAUUGUGUAUAGCAUUAAUGUAUCUACAUACCUACACCUAUCUAUAUAUAAGCUCAUGGUAGAAAACCAUAGCUAAGUAGCAUCGCA,0.32
UCUCAGUUUGUUUUCAAUACAAACAGCAACCACUGAAAUGCAGAAAAUGGUAAUCAAGUGUGAUGUUUCUAUAAAAAUAAUUGAGAUUCACAUGUAAUAGACCCUUUAGC,0.288
ACCAGCCAGGUCUUAUGUUCCCAGGCCCUGUCUUCUGGAAAGCAUUACUGGGAAGUGGACACUAGGAAUUGCAGCCACUGGGCAGUUGGGGUGGCUUCCUGGGAGAUGAG,1.07
UUCAAGCAGUUCUCCUGCCUCAACCUCCCGAGUAGCUGGGACUACAGGCAUGUGCCACCACACCUGGCUCAUUUUUGUAUUUUUAGUAGAGACAGGGUUUCACCAUGUUG,0.307
UGGCGGAGCAUUGCCUUUCUAAGAACUGUGACUGUGGCCCAUCGAGACCUAGCCUGGUUUUCCCUUAGACAAUGAAUGAAGUGUGCCCAUUGAAAUAAAACUCAAACCAC,0.368
UAUUUUUUUCCCUUCUGGCUGUAAGGUUUGUACAGACUGGUUUGGUAAAUGCUAAACUUUUGUGUCUUUUGCCUUUUUAAAGGAAUUGUUAACAUUGGAAUUGAGGGUAU,0.72
GGCUUCCUCUCUCUGGUCCUGCCACACAGAAGGAAAGCCCUGUCCAGGAUAAUGAGCGUUGCUGACACCCUUGCUAGCUUGUCCUGCCUACCUGCUUACCCCACUCCCUC,0.33
AUUGCUUGAUACCAUGAAAGUGUAAAUACUGUAAUGCCUAAUCUAUUUAUCAAAACUGACUACUGGACCGGAGCCCAGAAACCAUGGGUCAAGUUACACGUGAAUUUGUU,0.496
CUUCCCCUCUCGGGCUUCAUUCCACCCAGCUGUCAGCUGACCUGCGGGUGAAGGGCUCAGCCUUCUCACCCAUCCCUCAUUGCUGGAACCAAGUGCCAAGACUACCACAA,0.286
GCUCGUGUCUGACUCGAGCGGUAUCAGAACAGGGCUGGGAUGGAGUCUUCGUGUUUUGCACCCUGUGCAUUGCUAUAUUCACAAGUACCAACUGUAGGAGUCAGAGGUGU,0.368

# Study 2
# Target: Ras GTPase-activating protein-binding protein 1, full length (G3BP1, Homo sapiens, UniProt Q13283)
# UniProt Q13283, sequence (whole entry, looked up): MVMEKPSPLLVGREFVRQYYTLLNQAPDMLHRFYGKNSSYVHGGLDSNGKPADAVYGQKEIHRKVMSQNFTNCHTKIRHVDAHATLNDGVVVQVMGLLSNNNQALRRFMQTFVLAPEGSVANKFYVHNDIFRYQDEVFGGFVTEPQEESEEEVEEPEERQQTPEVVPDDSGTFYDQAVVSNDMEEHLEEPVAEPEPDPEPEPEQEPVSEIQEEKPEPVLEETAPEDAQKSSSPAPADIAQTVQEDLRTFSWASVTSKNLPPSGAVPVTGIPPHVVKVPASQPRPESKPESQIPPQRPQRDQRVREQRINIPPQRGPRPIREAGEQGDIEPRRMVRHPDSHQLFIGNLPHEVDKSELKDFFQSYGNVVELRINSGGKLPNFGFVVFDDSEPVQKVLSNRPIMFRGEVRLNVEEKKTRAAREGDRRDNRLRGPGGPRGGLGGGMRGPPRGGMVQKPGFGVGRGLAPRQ
# Method: RNA Bind-n-Seq
# Molecule type: RNA
# Matrix: in vitro
# Concentration: 200 nM
# Notes: whole 134-nt RNA, ends assumed
# With: 150 mM KCl
# Relative to: input library
# Reading: higher = stronger binding
# Constant ends, left off below: GGGAGUUCUACAGUCCGACGAUC … UGGAAUUCUCGGGUGUCAAGG
Sequence,log2 enrichment
UGGCCCUGGUGGCAUGCGGGGAGGAAGAGGUGGCCUCAUGGAUCGUGGUGGUCCCGGUGGAAUGUUCAGAGGUGGCCGUGGUGUAGACAG,0.259
CACAGACAACACGCACCCACACAGACACAGAGGGAAGGGGUUGGGAUGGGGACACGGUGCACAGCAGGGCGGGGUAGGACCCCAGCCCCU,1.8
CUGUGCUACACAUCGUAUGUACCGAAUCGGUUUUUUUGGGGUUUUUUUGGGUUUUUUUGGGGAAAGUAUUAUGUUACGCCGUUCGGAUCU,-0.984
UCAAGUCCUGUGCUACACAUCGUAUGUACCGAAUCGGGGUGGGGAGGGGAGGGGAAAGUAUUAUGUUACGCCGUUCGGAUCUGCACUUCC,1.47
UGUGCUACACAUCGUAUGUACCGAAUCGGGGAAAAAAAGGGGAAAAAAAGGGGAAAAAGGGGAAAGUAUUAUGUUACGCCGUUCGGAUCU,-0.415
CACAGACAACACGCACCCACACAGACACAGAGGGAAGGGGUUGGGAUGGGGACAGGGUGCACAGCAGGGCGGGAAAGGACCCCAGCCCCU,1.99
CUCAAGUCCUGUGCUACACAUCGUAUGUACCGAAUCGGUUUUUUUGGAGGUGGAAAGUAUUAUGUUACGCCGUUCGGAUCUGCACUUCCA,-0.408
CACAGACAACACGCACAAACACAGACACAGAGGGAAGGGGUUGGGAUGGGGACAGGGUGCACAGCAGGGCGGGGUAGGACCCCAGCCCCU,1.32
ACCAUGCAGGUGGGCAUCUUUGGGAAGUGGGGCAAGGGGGGGAUAGGGAGGGGGGUAACACUUUGGGAACAGGUGGUCCAAGGUCGUUUC,1.2
GUCCUGUGCUACACAUCGUAUGUACCGAAUCAAAUUUAAAUUUUUAAAUUUUUUUAAAAAAGUAUUAUGUUACGCCGUUCGGAUCUGCAC,-1.63
UUCAGUUGGAUGGAUUUAUUGCUCGAAACUGGGCCAAUCAAAGAUCAGCUUUGGGAAGUGCUCUUGAUCCACUUGCUGAUAAAAUACUUA,-1.42
AGUCCUGUGCUACACAUCGUAUGUACCGAAUCGGGUUUUGGGGUUUUGGGGUUUUGGAAAGUAUUAUGUUACGCCGUUCGGAUCUGCACU,-0.379
GUCCUGUGCUACACAUCGUAUGUACCGAAUCGGAAAAAGGGGAAAAAGGGGAAAAAGGGAAAGUAUUAUGUUACGCCGUUCGGAUCUGCA,-0.228
UCCUCAAGUCCUGUGCUACACAUCGUAUGUACCGAAUCGGGCGGGGCGGCGGAAAGUAUUAUGUUACGCCGUUCGGAUCUGCACUUCCAG,-0.119

# Study 3
# Target: Prothrombin, mature alpha-thrombin (F2, Homo sapiens, UniProt P00734)
# Method: aptamer microarray, sandwich
# Molecule type: DNA with 2'F-ANA
# Matrix: in vitro
# Concentration: 200 nM
# Notes: whole 15-mer aptamer, many near background
# With: Cy3 exosite-II aptamer, 400 nM
# Reading: higher = stronger binding
# Sequence: GGTTGGTGTGGTTGG
Modification,mean fluorescence intensity
2'F-ANA at 1 4 5 7 9 15,96.6 a.u.
2'F-ANA at 1 2 3 4 5 6 7 9 10 11,56.3 a.u.
2'F-ANA at 1 5 6 9 10 13 15,66.6 a.u.
2'F-ANA at 1 2 3 4 6 12,301 a.u.
2'F-ANA at 1 2 3 7 9 10 13,65.2 a.u.
2'F-ANA at 1 4 5 7 8 9 10 12 13 15,49.1 a.u.
2'F-ANA at 2 4 7 8 9 11 14 15,90 a.u.
2'F-ANA at 1 2 4 7 8 12 15,313 a.u.
2'F-ANA at 1 2 3 8 9 10 12,120 a.u.
2'F-ANA at 1 3 4 7 8 11 13 15,167 a.u.
2'F-ANA at 2 7 9 10 13,124 a.u.
2'F-ANA at 4 5 7 8 12 13 14 15,57 a.u.
2'F-ANA at 3 4 5 6 7 8 9 13 14 15,52.9 a.u.
2'F-ANA at 1 2 3 4 5 6 12 13 14,77.3 a.u.
2'F-ANA at 1 4 5 6 7 8 11 15,52.4 a.u.
2'F-ANA at 1 2 4 6 7 13 14,48.3 a.u.

# Study 4
# Target: Histone acetyltransferase KAT6A, winged helix 2, GST fusion (KAT6A, Homo sapiens, UniProt Q92794, residues 85-181)
# Method: protein binding microarray
# Molecule type: double-stranded DNA, one strand shown
# Matrix: in vitro
# Concentration: not given
# Notes: 8-mer, flanks averaged, mean of 2 arrays, mostly near background
# Relative to: not given
# Reading: higher = stronger binding
# Construct (chain): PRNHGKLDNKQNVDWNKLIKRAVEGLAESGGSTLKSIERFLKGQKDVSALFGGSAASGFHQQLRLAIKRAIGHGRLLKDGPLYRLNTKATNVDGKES
Sequence,E-score
CATTGGCG,0.0109
GTGCGCCA,0.0315
AACATGTT,-0.0772
ACGAGCAG,0.00961
CTGATAGC,0.0858
AGCCAAAC,-0.035
AATGCCCC,-0.205
GCACTAAC,-0.000275
CGGGTGCC,0.197
GGTGCTTA,0.173
CTGACCCA,-0.261
ATGCAACC,0.0672
GACAGGCA,0.1
ACATGCGA,-0.031
GGAGAAAA,0.0345
TGCACTAA,0.143
GATCGGAA,-0.0361
AATAATCC,0.022

# Study 5
# Target: Max-binding protein MNT, bHLH-zipper, MAX partner unstated (MNT, Homo sapiens, UniProt Q99583, residues 220-300)
# Method: protein-binding microarray
# Molecule type: double-stranded DNA, one strand shown
# Matrix: in vitro
# Concentration: not given
# Notes: k-mer, scored over probes, only values ≥0.25
# Reading: higher = stronger binding
# Construct (chain): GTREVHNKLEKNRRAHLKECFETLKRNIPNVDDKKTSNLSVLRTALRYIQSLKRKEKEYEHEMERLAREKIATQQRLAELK
Sequence,E-score
ACGCGCGG,0.314
ACGTGTCG,0.416
CCGTCCAC,0.281
ACACGCGA,0.418
ATGTGCCC,0.336
CCATGTGC,0.485
CGTGACGA,0.325
ATAACATG,0.321
GCACGTGA,0.49
ACGTGTGC,0.453
ATACCACG,0.357
CGCACGCC,0.363
GCGTACAC,0.25
ACCATGCG,0.447
AGACCACG,0.397
CCCGACCC,0.277
TGTGCACA,0.298
CACGTGCC,0.496
ATGCGAGG,0.319
CCCACCCA,0.378

# Excerpt of the above (study 2):
Sequence,log2 enrichment
UUCAGUUGGAUGGAUUUAUUGCUCGAAACUGGGCCAAUCAAAGAUCAGCUUUGGGAAGUGCUCUUGAUCCACUUGCUGAUAAAAUACUUA,-1.42
UGGCCCUGGUGGCAUGCGGGGAGGAAGAGGUGGCCUCAUGGAUCGUGGUGGUCCCGGUGGAAUGUUCAGAGGUGGCCGUGGUGUAGACAG,0.259
AGUCCUGUGCUACACAUCGUAUGUACCGAAUCGGGUUUUGGGGUUUUGGGGUUUUGGAAAGUAUUAUGUUACGCCGUUCGGAUCUGCACU,-0.379
GUCCUGUGCUACACAUCGUAUGUACCGAAUCGGAAAAAGGGGAAAAAGGGGAAAAAGGGAAAGUAUUAUGUUACGCCGUUCGGAUCUGCA,-0.228
UCCUCAAGUCCUGUGCUACACAUCGUAUGUACCGAAUCGGGCGGGGCGGCGGAAAGUAUUAUGUUACGCCGUUCGGAUCUGCACUUCCAG,-0.119
GUCCUGUGCUACACAUCGUAUGUACCGAAUCAAAUUUAAAUUUUUAAAUUUUUUUAAAAAAGUAUUAUGUUACGCCGUUCGGAUCUGCAC,-1.63
ACCAUGCAGGUGGGCAUCUUUGGGAAGUGGGGCAAGGGGGGGAUAGGGAGGGGGGUAACACUUUGGGAACAGGUGGUCCAAGGUCGUUUC,1.2
CACAGACAACACGCACCCACACAGACACAGAGGGAAGGGGUUGGGAUGGGGACAGGGUGCACAGCAGGGCGGGAAAGGACCCCAGCCCCU,1.99
CACAGACAACACGCACCCACACAGACACAGAGGGAAGGGGUUGGGAUGGGGACACGGUGCACAGCAGGGCGGGGUAGGACCCCAGCCCCU,1.8
CUGUGCUACACAUCGUAUGUACCGAAUCGGUUUUUUUGGGGUUUUUUUGGGUUUUUUUGGGGAAAGUAUUAUGUUACGCCGUUCGGAUCU,-0.984
